Experimental data pooled from the literature.
Numbered parts are unrelated; each lists some results of a single study. Positions count from the first letter of the parent shown.

Study 1
Target: UBE2V2 UBC core domain (UniProt Q15819)
Sequence of UniProt Q15819 (whole entry, looked up): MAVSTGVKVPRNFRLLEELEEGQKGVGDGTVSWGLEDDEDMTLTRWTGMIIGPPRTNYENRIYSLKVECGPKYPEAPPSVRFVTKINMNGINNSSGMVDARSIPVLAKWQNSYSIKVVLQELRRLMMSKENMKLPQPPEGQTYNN
Method: yeast two-hybrid
Matrix: yeast
Notes: mostly zero background
Reference: not given
Reading: higher = stronger interaction
B1: MDM4 RING domain (UniProt O15151); chain MEDCQNLLKPCSLCEKRPRDGNIIHGRTGHLVTCFHCARRLKKAGASCPICKKEIQLVIKVF
B2: RFWD3 RING domain (UniProt Q6PCD5); chain ASMDEEEGDTCTICLEQWTNAGDHRLSALRCGHLFGYRCISTWLKGQVRKCPQCNKKARHSDIVV
B3: UBOX5 RING domain (UniProt O94941); chain EQPGSILGPECASCKRVFSPYFKKEPVYQLPCGHLLCRPCLGEKQRSLPMTCTACQRPVASQDVLR
B4: DZIP3 RING domain (UniProt Q86Y13); chain PDEEEEEEEPCVICHENLSPENLSVLPCAHKFHAQCIRPWLMQQGTCPTCRLHVLLPEEFP
B5: TRIM62 RING domain (UniProt Q9BVG3); chain MACSLKDELLCSICLSIYQDPVSLGCEHYFCRRCITEHWVRQEAQGARDCPECRRTFAEPALAP
B6: SYTL4 RING domain (UniProt Q96C24); chain RGSQHYSDRTCARCQESLGRLSPKTNTCRGCNHLVCRDCRIQESNGTWRCKVCAKEIELKKAT
B7: DTX2 RING domain (UniProt Q86UW9); chain EELKVPPDEDCIICMEKLSTASGYSDVTDSKAIGSLAVGHLTKCSHAFHLLCLLAMYCNGNKDGSLQCPSCKTIYGEKTGTQ
B8: ZMIZ2 RING domain (UniProt Q8NF64); chain GTIPGTPGPNGEDGVEQTAIKVSLKCPITFRRIQLPARGHDCRHIQCFDLESYLQLNCERGTWRCPVCNKTALLEGLEVDQYMLGILIYIQNSDYEEITIDPTCSWK
`GSDDEEIPFKCFICRQSFQNPVVTKCRHYFCESCALQHFRTTPRCYVCDQQTNGVFNPA (RNF113A RING domain (UniProt O15541))`: “lacZ reporter activity” 0.
For `B1 (MDM4 RING domain)`, “lacZ reporter activity” read 0.
`B2 (RFWD3 RING domain)` — result for “lacZ reporter activity”: 0.
For `AMYLQENGIDCPKCKFSYALARGGCMHFHCTQCRHQFCSGCYNAFYAKNKC (RNF31 RING domain (UniProt Q96EP0))`, “lacZ reporter activity” read 0.
For `B3 (UBOX5 RING domain)`, “lacZ reporter activity” read 0.
For `B4 (DZIP3 RING domain)`, “lacZ reporter activity” read 0.
`B5 (TRIM62 RING domain)` — result for “lacZ reporter activity”: 0.
Under “lacZ reporter activity”, `B6 (SYTL4 RING domain)` is recorded as 0.
Under “lacZ reporter activity”, `B7 (DTX2 RING domain)` is recorded as 0.
For `NLSELTPYILCSICKGYLIDATTITECLHTFCKSCIVRHFYYSNRCPKCNIVVHQTQPLY (PCGF6 RING domain (UniProt Q9BYE7))`, “lacZ reporter activity” read 0.
`AVPSGLEENLCKICMDSPIDCVLLECGHMVTCTKCGKRMNECPICRQYVIRAVHVF (RFFL RING domain (UniProt Q8WZ73))` — result for “lacZ reporter activity”: 0.
`KLRKLKEAMLCMVCCEEEINSTFCPCGHTVCCESCAAQLQSCPVCRSRVEHVQHVY (MYLIP RING domain (UniProt Q8WY64))` — result for “lacZ reporter activity”: 0.
Under “lacZ reporter activity”, `PEDRESLKSACVVCLSSFKSCVFLECGHVCSCTECYRALPEPKKCPICRQAITRVIPLY (MUL1 RING domain (UniProt Q969V5))` is recorded as 0.
`GSRLQEINDVCAICYHEFTTSARITPCNHYFHALCLRKWLYIQDTCPMCHQKVYIEDDIK (RNF139 RING domain (UniProt Q8WU17))`: “lacZ reporter activity” 0.
`B8 (ZMIZ2 RING domain)` — result for “lacZ reporter activity”: 0.
Under “lacZ reporter activity”, `KETIKKTTKPCPRCHVPVEKNGGCMHMKCPQPQCRLEWCWNCGCEWNRVCMG (PRKN RING domain (UniProt O60260))` is recorded as 0.

Study 2
Target: Ras GTPase-activating protein-binding protein 1, full length (G3BP1, Homo sapiens, UniProt Q13283)
Sequence of UniProt Q13283 (whole entry, looked up): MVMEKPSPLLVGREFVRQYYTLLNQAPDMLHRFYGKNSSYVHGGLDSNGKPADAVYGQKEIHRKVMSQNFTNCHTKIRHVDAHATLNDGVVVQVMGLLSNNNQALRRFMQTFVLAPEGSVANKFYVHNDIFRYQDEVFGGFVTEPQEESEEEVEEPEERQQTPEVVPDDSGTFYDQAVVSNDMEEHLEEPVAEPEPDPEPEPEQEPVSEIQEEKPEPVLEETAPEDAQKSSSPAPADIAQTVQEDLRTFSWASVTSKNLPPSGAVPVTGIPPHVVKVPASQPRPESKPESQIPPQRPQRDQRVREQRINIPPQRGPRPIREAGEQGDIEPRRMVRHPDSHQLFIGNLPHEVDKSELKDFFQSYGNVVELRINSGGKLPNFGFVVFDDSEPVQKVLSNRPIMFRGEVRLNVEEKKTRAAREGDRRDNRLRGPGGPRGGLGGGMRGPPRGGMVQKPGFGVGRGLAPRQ
Method: RNA Bind-n-Seq
Form: RNA
Matrix: in vitro
Concentration: 200 nM
Notes: whole 134-nt RNA, ends assumed
With: 150 mM LiCl
Reference: input library
Reading: higher = stronger binding
Each molecule: 7-deaza-guanosine replaces G
Constant ends, left off below: GGGAGUUCUACAGUCCGACGAUC … UGGAAUUCUCGGGUGUCAAGG
The log2 enrichment of `ACGCUCCAUGAAAGCUAGGAGGGAGUGAAAUAUCAGUGAUCAUCGCAAGGAAGGAGGCAGACAAGAGUAAGGCACACCUGACUCUUAGGA` is reported as -0.942.
The log2 enrichment of `CCUGUGCUACACAUCGUAUGUACCGAAUCGGGUUUUUUUGGUUUUUUUGGGUUUUUUUGGGAAAGUAUUAUGUUACGCCGUUCGGAUCUG` is reported as -0.408.
`CAAGUCCUGUGCUACACAUCGUAUGUACCGAAUCGGUGGUUUUUGGAAAAAAAGGAAAGUAUUAUGUUACGCCGUUCGGAUCUGCACUUC` has a log2 enrichment of -0.398.
`UUUUUCCAGAGCUCACAACGACCUGGGGCUGAGGACAAUGUCCUCAAUGAGAUCGUGAGUAUCUUGCAGCCCACCCAGGUCCCUGAGCAG` has a log2 enrichment of -1.01.
`CUCAAGUCCUGUGCUACACAUCGUAUGUACCGAAUCGGUUGGGUUGGGUUGGGGAAAGUAUUAUGUUACGCCGUUCGGAUCUGCACUUCC` gave a log2 enrichment of -0.438.
For `UCCUGUGCUACACAUCGUAUGUACCGAAUCAAAUUUUUAAACCCCCAAAUUUUUUUAAAAAAGUAUUAUGUUACGCCGUUCGGAUCUGCA`, the log2 enrichment was 0.664.
The log2 enrichment of `UCCUGUGCUACACAUCGUAUGUACCGAAUCGGGGCCCCCGGGGCCCCCGGCCCCCGGGGAAAGUAUUAUGUUACGCCGUUCGGAUCUGCA` is reported as -0.685.
For `GGCAAGAGGAGGAACGACGUAGAAGAGAGGAAGAGAUGAUGAUUCGUCAACGUGAGAUGGAAGAACAAAUGAGGCGCCAAAGAGAGGAAA`, the log2 enrichment was 1.1.
`CCUCAAGUCCUGUGCUACACAUCGUAUGUACCGAAUCGGAGGUGGUUUUUGGAAAGUAUUAUGUUACGCCGUUCGGAUCUGCACUUCCAG` has a log2 enrichment of -0.0396.
`GUCCUGUGCUACACAUCGUAUGUACCGAAUCGGGCCCCCGGCCCCCGGGCCCCCGGGGAAAGUAUUAUGUUACGCCGUUCGGAUCUGCAC` gave a log2 enrichment of -0.791.
`CACAGACAACACGCACCAAAACAGACACAGAGGGAAGGGGUUGGGAUGGGGACAGGGUGCACAGCAGGGCGGGGUAGGACCCCAGCCCCU` has a log2 enrichment of 0.573.

Study 3
Target: CCNA2, cyclin fold, Cln2 fusion (human)
Method: yeast growth competition, sequencing
Matrix: yeast
Notes: strong parent motif
Reference: not given
Reading: higher = stronger binding
Starting sequence: PKN2 docking peptide (human); VSAVQKLDFSDTM; partner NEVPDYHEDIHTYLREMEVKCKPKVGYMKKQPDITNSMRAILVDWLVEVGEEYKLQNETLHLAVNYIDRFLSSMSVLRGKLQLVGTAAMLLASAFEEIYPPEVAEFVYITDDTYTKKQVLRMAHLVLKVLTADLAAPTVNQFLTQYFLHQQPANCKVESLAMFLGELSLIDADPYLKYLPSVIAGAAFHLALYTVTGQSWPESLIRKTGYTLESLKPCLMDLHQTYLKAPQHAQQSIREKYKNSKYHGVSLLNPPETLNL
Under “normalised enrichment score”, `S2V` is recorded as 1.96.
For `S10L`, “normalised enrichment score” read 0.773.
`F9M` — result for “normalised enrichment score”: -0.659.
`V4R` — result for “normalised enrichment score”: 4.34.
`D8S`: “normalised enrichment score” 1.57.
For `Q5R`, “normalised enrichment score” read 5.38.
Under “normalised enrichment score”, `D8C` is recorded as 1.56.
Under “normalised enrichment score”, `V1E` is recorded as 0.521.
Under “normalised enrichment score”, `F9V` is recorded as -0.237.
`D11A`: “normalised enrichment score” 2.09.
For `D8T`, “normalised enrichment score” read 1.31.
`F9W`: “normalised enrichment score” -0.276.
Under “normalised enrichment score”, `L7F` is recorded as 0.0277.
`S2K` — result for “normalised enrichment score”: 3.55.
For `S10T`, “normalised enrichment score” read 2.07.
Under “normalised enrichment score”, `L7C` is recorded as 0.135.
For `F9H`, “normalised enrichment score” read -0.268.
For `L7A`, “normalised enrichment score” read 0.192.
Under “normalised enrichment score”, `S10R` is recorded as 1.33.
Under “normalised enrichment score”, `K6Y` is recorded as 0.118.
Under “normalised enrichment score”, `V1I` is recorded as 1.4.
For `D8Y`, “normalised enrichment score” read 1.48.
Under “normalised enrichment score”, `F9C` is recorded as -0.4.
`V4G` — result for “normalised enrichment score”: 0.158.
Under “normalised enrichment score”, `T12S` is recorded as 2.74.

Study 4
Target: BATF2, bZIP domain (human)
Method: DHFR protein complementation
Matrix: yeast
Notes: single substitutions, most at no-binding floor
Reference: wild-type JUN-FOS pair
Reading: higher = stronger binding
Starting sequence: JUN, bZIP domain (human); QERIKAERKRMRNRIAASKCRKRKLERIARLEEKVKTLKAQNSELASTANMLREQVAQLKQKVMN; partner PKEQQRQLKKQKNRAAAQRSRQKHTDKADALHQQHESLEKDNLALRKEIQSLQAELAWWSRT
For `M51H`, the binding fitness was -0.293 natural log.
`K34S` has a binding fitness of -0.184 natural log.
The binding fitness of `S43M` is reported as -0.246 natural log.
For `E44N`, the binding fitness was -0.588 natural log.
`E32D` gave a binding fitness of -0.562 natural log.
With `K39T` the binding fitness was -0.349 natural log.
With `I28Q` the binding fitness was -0.37 natural log.
For `E33F`, the binding fitness was -0.513 natural log.
The binding fitness of `E44H` is reported as -0.426 natural log.
`M51Q` gave a binding fitness of -0.146 natural log.
For `A40H`, the binding fitness was -0.351 natural log.
`A29G` has a binding fitness of -0.477 natural log.
`A29C` has a binding fitness of -0.561 natural log.
For `E44K`, the binding fitness was -0.799 natural log.
`S47G` has a binding fitness of -0.345 natural log.
With `Q55P` the binding fitness was -1.47 natural log.
`L45K` gave a binding fitness of -1.51 natural log.
For `K39V`, the binding fitness was -0.449 natural log.
For `A57T`, the binding fitness was -0.326 natural log.
`Q55L` has a binding fitness of -0.661 natural log.
For `A49Q`, the binding fitness was -1.25 natural log.
`L52A` has a binding fitness of -1.31 natural log.
For `E33V`, the binding fitness was -0.549 natural log.
With `R30M` the binding fitness was -0.167 natural log.
With `L31V` the binding fitness was -0.761 natural log.

A few entries again (study 1):
`B2 (RFWD3 RING domain)` — result for “lacZ reporter activity”: 0.
For `AMYLQENGIDCPKCKFSYALARGGCMHFHCTQCRHQFCSGCYNAFYAKNKC (RNF31 RING domain (UniProt Q96EP0))`, “lacZ reporter activity” read 0.
For `B3 (UBOX5 RING domain)`, “lacZ reporter activity” read 0.
For `B4 (DZIP3 RING domain)`, “lacZ reporter activity” read 0.
`B5 (TRIM62 RING domain)` — result for “lacZ reporter activity”: 0.
Under “lacZ reporter activity”, `B6 (SYTL4 RING domain)` is recorded as 0.
Under “lacZ reporter activity”, `B7 (DTX2 RING domain)` is recorded as 0.
For `NLSELTPYILCSICKGYLIDATTITECLHTFCKSCIVRHFYYSNRCPKCNIVVHQTQPLY (PCGF6 RING domain (UniProt Q9BYE7))`, “lacZ reporter activity” read 0.
`AVPSGLEENLCKICMDSPIDCVLLECGHMVTCTKCGKRMNECPICRQYVIRAVHVF (RFFL RING domain (UniProt Q8WZ73))` — result for “lacZ reporter activity”: 0.
`KLRKLKEAMLCMVCCEEEINSTFCPCGHTVCCESCAAQLQSCPVCRSRVEHVQHVY (MYLIP RING domain (UniProt Q8WY64))` — result for “lacZ reporter activity”: 0.
Under “lacZ reporter activity”, `PEDRESLKSACVVCLSSFKSCVFLECGHVCSCTECYRALPEPKKCPICRQAITRVIPLY (MUL1 RING domain (UniProt Q969V5))` is recorded as 0.
`GSRLQEINDVCAICYHEFTTSARITPCNHYFHALCLRKWLYIQDTCPMCHQKVYIEDDIK (RNF139 RING domain (UniProt Q8WU17))`: “lacZ reporter activity” 0.
